Measurements of several laboratories.
Every numbered part comes from another study and shows a few of its results, in no order.
Sequence of UniProt Q9BWU1 (whole entry, looked up): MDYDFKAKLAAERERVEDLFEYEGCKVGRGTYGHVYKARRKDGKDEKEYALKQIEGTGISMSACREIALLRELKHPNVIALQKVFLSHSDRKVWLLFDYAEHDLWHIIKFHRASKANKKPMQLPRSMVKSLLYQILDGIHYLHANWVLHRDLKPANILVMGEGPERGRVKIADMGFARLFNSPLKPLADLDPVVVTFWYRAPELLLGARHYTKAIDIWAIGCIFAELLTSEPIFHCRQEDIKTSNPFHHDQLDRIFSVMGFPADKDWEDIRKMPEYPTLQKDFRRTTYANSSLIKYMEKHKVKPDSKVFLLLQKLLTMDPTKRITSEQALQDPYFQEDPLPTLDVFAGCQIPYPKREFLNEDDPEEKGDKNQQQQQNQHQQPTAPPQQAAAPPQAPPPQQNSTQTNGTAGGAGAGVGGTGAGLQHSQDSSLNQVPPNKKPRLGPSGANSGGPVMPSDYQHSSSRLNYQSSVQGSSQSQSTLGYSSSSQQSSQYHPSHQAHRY
Sequence of UniProt O95382 (whole entry, looked up): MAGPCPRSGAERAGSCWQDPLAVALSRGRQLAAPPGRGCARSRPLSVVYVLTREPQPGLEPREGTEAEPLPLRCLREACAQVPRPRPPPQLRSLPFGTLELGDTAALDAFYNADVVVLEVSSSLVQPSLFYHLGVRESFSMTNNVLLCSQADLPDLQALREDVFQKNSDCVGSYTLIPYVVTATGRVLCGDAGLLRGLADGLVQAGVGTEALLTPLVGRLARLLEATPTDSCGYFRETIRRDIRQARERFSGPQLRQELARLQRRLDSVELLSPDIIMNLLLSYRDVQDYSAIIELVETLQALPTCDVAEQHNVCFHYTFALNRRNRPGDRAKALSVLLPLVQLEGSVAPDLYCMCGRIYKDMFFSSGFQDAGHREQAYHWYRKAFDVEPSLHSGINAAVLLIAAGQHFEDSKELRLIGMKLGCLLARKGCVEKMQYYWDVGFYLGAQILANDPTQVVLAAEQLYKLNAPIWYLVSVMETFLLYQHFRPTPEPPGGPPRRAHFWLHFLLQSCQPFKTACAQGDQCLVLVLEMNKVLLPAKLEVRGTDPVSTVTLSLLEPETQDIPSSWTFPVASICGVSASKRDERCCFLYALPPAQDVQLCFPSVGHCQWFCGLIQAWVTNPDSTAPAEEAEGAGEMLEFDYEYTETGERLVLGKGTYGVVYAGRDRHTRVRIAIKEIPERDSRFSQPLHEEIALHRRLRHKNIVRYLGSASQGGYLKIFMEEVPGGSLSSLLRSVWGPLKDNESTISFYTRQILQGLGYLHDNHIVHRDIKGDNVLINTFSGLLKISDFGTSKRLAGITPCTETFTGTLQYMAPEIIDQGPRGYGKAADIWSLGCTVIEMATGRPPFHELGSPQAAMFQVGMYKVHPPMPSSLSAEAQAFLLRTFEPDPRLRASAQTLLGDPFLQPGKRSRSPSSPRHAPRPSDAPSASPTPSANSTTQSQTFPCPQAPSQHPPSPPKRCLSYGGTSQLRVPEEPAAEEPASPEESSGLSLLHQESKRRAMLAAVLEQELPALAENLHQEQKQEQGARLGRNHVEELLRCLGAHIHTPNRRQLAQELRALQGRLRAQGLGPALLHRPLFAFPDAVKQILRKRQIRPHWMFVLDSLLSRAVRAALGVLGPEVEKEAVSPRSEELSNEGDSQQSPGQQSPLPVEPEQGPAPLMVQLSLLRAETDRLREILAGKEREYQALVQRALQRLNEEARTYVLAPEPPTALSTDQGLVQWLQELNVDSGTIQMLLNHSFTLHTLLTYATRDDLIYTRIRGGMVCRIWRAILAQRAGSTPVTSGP
Sequence of UniProt Q9UL54 (whole entry, looked up): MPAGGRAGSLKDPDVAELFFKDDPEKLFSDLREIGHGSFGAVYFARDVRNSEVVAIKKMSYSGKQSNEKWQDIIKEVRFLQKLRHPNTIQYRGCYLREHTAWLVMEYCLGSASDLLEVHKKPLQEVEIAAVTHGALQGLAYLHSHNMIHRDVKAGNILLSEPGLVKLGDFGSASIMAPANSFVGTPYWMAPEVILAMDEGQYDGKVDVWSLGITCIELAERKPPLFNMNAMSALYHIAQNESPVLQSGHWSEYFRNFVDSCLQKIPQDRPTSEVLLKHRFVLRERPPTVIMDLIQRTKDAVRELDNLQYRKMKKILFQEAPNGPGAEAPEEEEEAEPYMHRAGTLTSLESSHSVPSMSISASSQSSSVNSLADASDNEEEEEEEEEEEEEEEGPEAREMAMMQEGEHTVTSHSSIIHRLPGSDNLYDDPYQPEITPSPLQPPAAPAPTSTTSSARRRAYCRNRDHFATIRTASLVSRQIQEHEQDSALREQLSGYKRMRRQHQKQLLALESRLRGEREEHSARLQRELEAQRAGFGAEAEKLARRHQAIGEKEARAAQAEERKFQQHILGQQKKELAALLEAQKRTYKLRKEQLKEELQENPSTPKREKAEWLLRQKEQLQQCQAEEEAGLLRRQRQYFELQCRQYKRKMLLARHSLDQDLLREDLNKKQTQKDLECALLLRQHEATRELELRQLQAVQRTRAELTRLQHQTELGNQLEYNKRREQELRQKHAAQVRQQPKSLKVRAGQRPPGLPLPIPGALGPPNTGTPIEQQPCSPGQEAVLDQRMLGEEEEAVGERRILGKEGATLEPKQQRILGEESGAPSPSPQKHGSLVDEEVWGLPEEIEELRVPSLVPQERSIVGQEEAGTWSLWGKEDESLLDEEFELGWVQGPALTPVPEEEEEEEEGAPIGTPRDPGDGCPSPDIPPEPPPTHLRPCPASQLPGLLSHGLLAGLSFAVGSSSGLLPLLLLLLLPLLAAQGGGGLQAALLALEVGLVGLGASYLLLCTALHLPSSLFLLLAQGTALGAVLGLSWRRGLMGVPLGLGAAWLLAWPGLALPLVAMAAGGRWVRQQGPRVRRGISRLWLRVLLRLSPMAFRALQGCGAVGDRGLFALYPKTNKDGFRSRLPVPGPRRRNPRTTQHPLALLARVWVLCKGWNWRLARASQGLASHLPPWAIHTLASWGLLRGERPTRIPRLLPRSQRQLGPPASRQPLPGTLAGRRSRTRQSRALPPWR
Sequence of UniProt Q86UX6 (whole entry, looked up): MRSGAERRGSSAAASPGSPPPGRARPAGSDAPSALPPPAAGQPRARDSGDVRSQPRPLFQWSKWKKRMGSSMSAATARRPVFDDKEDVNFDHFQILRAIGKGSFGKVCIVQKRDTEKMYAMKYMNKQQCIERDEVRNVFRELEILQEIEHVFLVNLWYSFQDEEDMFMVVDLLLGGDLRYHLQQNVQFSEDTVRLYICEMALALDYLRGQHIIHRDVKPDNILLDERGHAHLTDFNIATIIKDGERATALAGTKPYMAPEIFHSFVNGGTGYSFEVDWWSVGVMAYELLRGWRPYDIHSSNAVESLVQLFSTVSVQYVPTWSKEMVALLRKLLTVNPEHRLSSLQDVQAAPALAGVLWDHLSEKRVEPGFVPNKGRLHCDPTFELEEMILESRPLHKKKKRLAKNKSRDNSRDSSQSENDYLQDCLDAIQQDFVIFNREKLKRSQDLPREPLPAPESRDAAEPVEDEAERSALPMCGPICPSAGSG
Sequence of UniProt Q16512 (whole entry, looked up): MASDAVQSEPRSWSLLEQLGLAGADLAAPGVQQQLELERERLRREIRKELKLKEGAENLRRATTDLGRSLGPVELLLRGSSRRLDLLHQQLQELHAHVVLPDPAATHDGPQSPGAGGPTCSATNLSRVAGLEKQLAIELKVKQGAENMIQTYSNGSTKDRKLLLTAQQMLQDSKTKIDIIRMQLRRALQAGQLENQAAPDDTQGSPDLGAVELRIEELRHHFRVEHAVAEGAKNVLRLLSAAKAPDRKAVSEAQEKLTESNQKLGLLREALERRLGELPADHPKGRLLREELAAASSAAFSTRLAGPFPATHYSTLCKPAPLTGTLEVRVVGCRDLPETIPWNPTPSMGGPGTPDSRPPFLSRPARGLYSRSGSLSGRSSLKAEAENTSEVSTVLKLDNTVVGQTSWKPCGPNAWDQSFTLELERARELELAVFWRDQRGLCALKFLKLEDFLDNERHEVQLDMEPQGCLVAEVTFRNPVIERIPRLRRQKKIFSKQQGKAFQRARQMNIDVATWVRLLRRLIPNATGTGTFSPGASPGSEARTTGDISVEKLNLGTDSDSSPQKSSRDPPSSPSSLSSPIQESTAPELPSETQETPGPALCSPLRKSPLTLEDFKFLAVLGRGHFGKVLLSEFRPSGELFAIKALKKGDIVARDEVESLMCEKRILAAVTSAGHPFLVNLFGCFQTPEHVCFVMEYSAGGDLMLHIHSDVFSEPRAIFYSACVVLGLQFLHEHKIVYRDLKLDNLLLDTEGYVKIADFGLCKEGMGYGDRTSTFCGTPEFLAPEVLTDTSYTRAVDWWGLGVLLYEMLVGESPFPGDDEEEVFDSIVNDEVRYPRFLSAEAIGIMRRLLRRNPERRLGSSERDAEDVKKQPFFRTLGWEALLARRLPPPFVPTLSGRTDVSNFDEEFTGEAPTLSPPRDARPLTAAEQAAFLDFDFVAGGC

Block 1 — effect on: enzyme activity; action: inhibitor; concentration: 0.5 µM; relative to: control; quantity: remaining activity
Target: Tyrosine-protein kinase TXK (TXK, Homo sapiens, UniProt P42681)
Sequence of UniProt P42681 (whole entry, looked up): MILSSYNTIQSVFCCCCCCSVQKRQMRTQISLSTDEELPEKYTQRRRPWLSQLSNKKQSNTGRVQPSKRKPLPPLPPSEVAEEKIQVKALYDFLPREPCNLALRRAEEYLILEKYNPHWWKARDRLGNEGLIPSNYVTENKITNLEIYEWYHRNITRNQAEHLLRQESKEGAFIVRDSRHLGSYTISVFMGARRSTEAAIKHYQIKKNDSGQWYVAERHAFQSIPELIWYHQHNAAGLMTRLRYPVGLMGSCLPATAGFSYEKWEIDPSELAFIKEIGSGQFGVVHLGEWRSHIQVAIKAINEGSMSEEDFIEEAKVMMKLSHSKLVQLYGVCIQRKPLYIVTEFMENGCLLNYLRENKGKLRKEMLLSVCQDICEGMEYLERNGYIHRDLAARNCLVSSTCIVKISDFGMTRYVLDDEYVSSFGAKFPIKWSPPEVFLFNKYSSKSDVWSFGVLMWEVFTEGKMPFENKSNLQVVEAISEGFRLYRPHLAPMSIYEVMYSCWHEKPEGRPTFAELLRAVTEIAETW
Compound = CO[C@H]1C[C@@H]2CC[C@@H](C)[C@@](O)(O2)C(=O)C(=O)N2CCCC[C@H]2C(=O)O[C@H]([C@H](C)C[C@@H]2CC[C@@H](O)[C@H](OC)C2)CC(=O)[C@H](C)/C=C(\C)[C@@H](O)[C@@H](OC)C(=O)[C@H](C)C[C@H](C)/C=C/C=C/C=C/1C; result = 105%
Compound = Cn1c2ccccc2c2c3c(c4c5ccccc5n(CCC#N)c4c21)CNC3=O; result = 6.39%
Compound = COc1ccc(OC)c2c(=S)c3ccccc3[nH]c12; result = 101%
Compound = Cc1ccc(Nc2nccc(N(C)c3ccc4c(C)n(C)nc4c3)n2)cc1S(N)(=O)=O; result = 40.2%
Compound = N#CC(C#N)=C(N)/C(C#N)=C/c1ccc(O)cc1; result = 100%
Compound = CN(C)c1ccc(C=C2C(=O)Nc3ccccc32)cc1; result = 96.1%
Compound = Cc1nc(-c2ccccc2)c(-c2ccncc2)o1; result = 99.4%
Compound = O=C(O)c1ccc2c3c1cccc3c(=O)n1c3ccccc3nc21; result = 102%
Compound = COc1cc2ncnc(Nc3ccc(F)c(Cl)c3)c2cc1OCCCN1CCOCC1; result = 83.2%
Compound = O=S(=O)(c1cccc2cnccc12)N1CCCNCC1; result = 84.2%
Compound = Nc1ccc2ncnc(NCCc3ccc(Oc4ccccc4)cc3)c2c1; result = 102%
Compound = C#Cc1cccc(Nc2ncnc3cc(OCCOC)c(OCCOC)cc23)c1; result = 88.5%
Compound = COc1ccc(C(=O)Nc2sc3c(c2C(N)=O)CCCC3)cc1OC; result = 96.2%
Compound = Cc1cccc(-c2[nH]c(C(C)(C)C)nc2-c2ccc3c(c2)OCO3)n1; result = 100%

Block 2 — effect on: cell-free assay; method: competition with immobilised ligand; concentration: 1 µM; quantity: remaining binding
Structure (SMILES): CN(C)c1ncnc(-c2ccc3nc(Nc4cc(CN5CCN(C(=O)CC(F)(F)F)CC5)ccn4)[nH]c3c2)c1Cl
target = PLK1 (Homo sapiens, UniProt P53350); result = 59%
target = MET (Homo sapiens, UniProt P08581, M1250T); result = 70%
target = EGFR (Homo sapiens, UniProt P00533, T790M); result = 100%
target = MAP3K6 (Homo sapiens, UniProt O95382); result = 87%
target = STK32C (Homo sapiens, UniProt Q86UX6); result = 100%

Block 3 — quantity: remaining binding
SMILES: CN1CCN(C(=O)c2ccc(NC(=O)Nc3ccc(N(C)c4ccnc(Nc5ccc(CS(C)(=O)=O)cc5)n4)cc3)cc2)CC1
target = CDK19 (Homo sapiens, UniProt Q9BWU1); method = DiscoverX cell-free binding; concentration = 1000 nM; result = 100%
target = KIT (Homo sapiens, UniProt P10721, D816H); effect on = binding; concentration = 1 µM; result = 27%
target = PKN1 (Homo sapiens, UniProt Q16512); effect on = binding; concentration = 1 µM; result = 70%
target = TAOK2 (Homo sapiens, UniProt Q9UL54); effect on = binding; method = competition with immobilised ligand; concentration = 1 µM; result = 76%
target = RET (Homo sapiens, UniProt P07949, V804L); effect on = binding; concentration = 1 µM; result = 5.5%
target = EPHA5 (Homo sapiens, UniProt P54756); effect on = binding; method = competition with immobilised ligand; concentration = 1 µM; result = 99%

Block 4 — host: human; sample: microsomes or S9; concentration: 2 µM; time: 0.5 h; quantity: remaining compound
Compound = CCOC(=O)c1ccc(-c2ccc(C3CC(=O)Nc4cc5c(cc43)OCO5)o2)cc1 (stereo not drawn); result = 61.7%
Compound = CN(C)CCCNCc1cccc(Oc2nnnn2-c2ccccc2)c1; result = 18.1%
Compound = CCN1CCN(c2nc(-c3ccc(C)cc3)cc3cc(C)ccc23)CC1; result = 29.1%
Compound = Cc1cc(C(F)(F)F)nc(OCCCC#N)c1C(=O)C1C(=O)C2CCC(C2)C1=O (stereo not drawn); result = 86.2%
Compound = Cc1nc2n(n1)CC(Nc1ccc3nccnc3n1)CC2 (stereo not drawn); result = 91.6%

For quick reference, copied from above (block 1):
Compound = Nc1ccc2ncnc(NCCc3ccc(Oc4ccccc4)cc3)c2c1; result = 102%
Compound = C#Cc1cccc(Nc2ncnc3cc(OCCOC)c(OCCOC)cc23)c1; result = 88.5%
Compound = COc1ccc(C(=O)Nc2sc3c(c2C(N)=O)CCCC3)cc1OC; result = 96.2%
